{"data": "Measurements pooled from the literature", "note": "Compare with care: the assays were run in different laboratories.", "UniProt O00141, sequence (whole entry, looked up)": "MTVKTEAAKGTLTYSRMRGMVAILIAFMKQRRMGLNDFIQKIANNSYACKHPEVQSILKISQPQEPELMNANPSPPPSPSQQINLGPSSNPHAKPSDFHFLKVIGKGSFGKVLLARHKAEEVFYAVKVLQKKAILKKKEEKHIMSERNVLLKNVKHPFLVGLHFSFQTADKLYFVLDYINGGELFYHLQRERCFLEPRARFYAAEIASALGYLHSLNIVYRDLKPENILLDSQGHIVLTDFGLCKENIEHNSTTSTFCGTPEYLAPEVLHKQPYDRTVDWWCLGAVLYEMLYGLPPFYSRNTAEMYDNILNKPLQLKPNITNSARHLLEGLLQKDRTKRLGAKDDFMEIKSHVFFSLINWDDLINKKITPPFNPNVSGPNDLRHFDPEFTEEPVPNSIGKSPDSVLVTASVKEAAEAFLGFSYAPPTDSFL", "UniProt O75385, sequence (whole entry, looked up)": "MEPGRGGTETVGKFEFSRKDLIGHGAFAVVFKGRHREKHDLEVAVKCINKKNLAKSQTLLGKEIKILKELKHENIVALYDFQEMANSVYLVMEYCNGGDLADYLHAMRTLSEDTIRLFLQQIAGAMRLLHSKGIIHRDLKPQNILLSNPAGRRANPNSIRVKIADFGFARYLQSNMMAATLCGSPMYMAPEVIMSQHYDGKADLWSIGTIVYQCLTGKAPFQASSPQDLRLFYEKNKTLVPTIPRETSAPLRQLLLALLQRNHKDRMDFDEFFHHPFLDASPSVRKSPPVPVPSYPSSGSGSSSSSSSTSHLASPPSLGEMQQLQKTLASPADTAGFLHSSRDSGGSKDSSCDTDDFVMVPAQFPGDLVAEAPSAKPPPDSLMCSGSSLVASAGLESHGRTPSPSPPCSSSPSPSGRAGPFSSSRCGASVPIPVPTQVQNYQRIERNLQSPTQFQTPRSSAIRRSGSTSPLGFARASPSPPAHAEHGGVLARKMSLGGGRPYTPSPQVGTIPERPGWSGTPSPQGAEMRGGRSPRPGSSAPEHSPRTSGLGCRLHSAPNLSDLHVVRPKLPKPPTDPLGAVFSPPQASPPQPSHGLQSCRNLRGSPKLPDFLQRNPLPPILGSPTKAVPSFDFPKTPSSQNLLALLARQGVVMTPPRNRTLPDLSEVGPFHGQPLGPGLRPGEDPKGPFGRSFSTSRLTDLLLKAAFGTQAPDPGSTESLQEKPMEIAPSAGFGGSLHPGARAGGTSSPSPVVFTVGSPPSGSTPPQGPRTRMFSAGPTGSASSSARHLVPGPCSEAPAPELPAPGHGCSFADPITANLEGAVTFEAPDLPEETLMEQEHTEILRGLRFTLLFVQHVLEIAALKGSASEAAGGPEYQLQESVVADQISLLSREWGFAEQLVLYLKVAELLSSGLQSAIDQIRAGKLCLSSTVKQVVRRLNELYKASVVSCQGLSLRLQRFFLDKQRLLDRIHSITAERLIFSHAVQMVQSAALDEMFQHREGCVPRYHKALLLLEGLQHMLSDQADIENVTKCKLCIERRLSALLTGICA"}
{"Compound": "Cc1ccc(S(=O)(=O)N2CCCN(C(=O)c3cc(-c4ccccc4)n[nH]3)CC2)cc1", "target or system": "HEK293", "test": "cell growth or viability", "quantity": "IC50", "value": "> 10 µM"}
{"Compound": "O=C(Nc1ccc(Oc2nnc(-c3ccc(Cl)cc3)c3ccccc23)cc1)c1cccc([N+](=O)[O-])c1", "target or system": "MCF7", "test": "cell growth or viability, MTT", "conditions": "2.5 µM", "quantity": "cell death", "value": "95.1%"}
{"Compound": "Cc1ccc(Cn2nc(-c3ccc(CO)o3)c3ccccc32)cc1", "target or system": "RBE", "test": "cell growth or viability, ATP luminescence", "conditions": "46 µM, 72 h", "quantity": "inhibition", "value": "59%"}
{"Compound": "COc1cc(-c2nn(CCN3CCC(N(C)C)CC3)c3ncnc(N)c23)ccc1NC(=O)OC(C)(C)C", "target or system": "OE33", "test": "cell growth or viability, resazurin", "conditions": "5 days", "quantity": "EC50", "value": "16.3 µM"}
{"Compound": "COc1cc(-c2cncc3c2CN(C)Cc2cc(N4CCNCC4)ccc2-3)cc(OC)c1OC", "target or system": "ULK1 (Homo sapiens, UniProt O75385)", "test": "enzyme activity, inhibitor", "conditions": "1 µM", "quantity": "remaining activity", "value": "110%"}
{"Compound": "CCC(=CCc1c(O)cc2c(c1O)C(=O)C[C@@H](c1ccccc1O)O2)CC", "target or system": "HeLa", "test": "cell growth or viability, MTT", "conditions": "120 µM, 48 h", "quantity": "inhibition", "value": "72.7%"}
{"Compound": "CCc1nc(C(N)=O)c(Nc2ccc(N3CCC(N4CCN(C)CC4)CC3)c(OC)c2)nc1NC1CCOCC1", "target or system": "Kasumi 1", "test": "cell growth or viability", "conditions": "72 h", "quantity": "GI50", "value": "0.355 µM"}
{"Compound": "O=C(Nc1ccc(Oc2nnc(-c3ccc(Cl)cc3)c3ccccc23)cc1)c1ccccc1", "target or system": "MCF7", "test": "cell growth or viability, MTT", "conditions": "0.625 µM", "quantity": "cell death", "value": "96.2%"}
{"Compound": "Nc1ccn([C@@H]2O[C@H](CO)[C@@H](O)C2(F)F)c(=O)n1", "target or system": "MB002", "test": "cell growth or viability", "conditions": "7 days", "quantity": "IC50", "value": "0.0265 µM"}
{"Compound": "OCc1ccc(-c2nn(Cc3ccncc3)c3ccccc23)o1", "target or system": "RBE", "test": "cell growth or viability, ATP luminescence", "conditions": "46 µM, 72 h", "quantity": "inhibition", "value": "57%"}
{"Compound": "Cc1[nH]c(C)c(-c2ccc(Oc3ccc(OC(F)(F)F)cc3)cc2)c(=O)c1Br", "target or system": "HEK293", "test": "cell growth or viability", "quantity": "IC50", "value": "> 10 µM"}
{"Compound": "Cc1ccc(C(CS(=O)(=O)c2ccccc2)=NNC2=NC(=O)C(=NNc3ccc([N+](=O)[O-])cc3)S2)cc1", "target or system": "WM 266-4", "test": "cell growth or viability, MTT", "conditions": "0.4 µM, 48 h", "quantity": "viability", "value": "57.4%"}
{"Compound": "CCCCCCCc1c(C)[nH]c2ccccc2c1=O", "target or system": "HEK293", "test": "cell growth or viability", "quantity": "IC50", "value": "> 10 µM"}
{"Compound": "C=CC(=O)N1CCC(COCC(=O)N2CCN(c3nc(-c4cnc(N)nc4C(F)F)nc(N4CCOC[C@@H]4C)n3)CC2)CC1", "target or system": "SGK1 (Homo sapiens, UniProt O00141)", "test": "binding, competition with immobilised ligand", "conditions": "1 µM", "quantity": "remaining binding", "value": "91%"}
{"Compound": "CCOc1ccc2c(C)c(CC)c(=O)oc2c1C", "target or system": "PC-3", "test": "cell growth or viability, MTT", "conditions": "62.5 µg/mL", "quantity": "viability", "value": "99.9%"}
{"Compound": "CC(=NNC(N)=S)c1ccc(Nc2nnc(-c3ccc(Cl)cc3)c3ccccc23)cc1", "target or system": "MCF7", "test": "cell growth or viability, MTT", "conditions": "0.312 µM, 24 h", "quantity": "viability", "value": "6.82%"}
{"Compound": "COC1CCN(C(=O)/C=C/c2nn(CC3CCCC3)c3ncnc(N)c23)CC1", "target or system": "FLO-1", "test": "cell growth or viability, resazurin", "conditions": "5 days", "quantity": "EC50", "value": "> 30 µM"}
{"Compound": "CC(=NNC(=S)Nc1ccccc1)c1ccc(Nc2nnc(-c3ccc(Cl)cc3)c3ccccc23)cc1", "target or system": "MCF7", "test": "cell growth or viability, MTT", "conditions": "2.5 µM", "quantity": "cell death", "value": "87.8%"}
{"Compound": "CC(=NNC(=O)COc1ccc2c(C)c(Cc3ccccc3)c(=O)oc2c1C)c1ccc(Br)cc1", "target or system": "PC-3", "test": "cell growth or viability, MTT", "conditions": "125 µg/mL", "quantity": "viability", "value": "8.53%"}
{"Compound": "CC(=NNC(=O)c1ccc(N)cc1)c1ccc(Nc2nnc(-c3ccc(Cl)cc3)c3ccccc23)cc1", "target or system": "MCF7", "test": "cell growth or viability, MTT", "conditions": "1.25 µM, 24 h", "quantity": "viability", "value": "14.1%"}
{"Compound": "CCc1c(C)c2ccc(OCC=Cc3ccccc3)c(C)c2oc1=O", "target or system": "PC-3", "test": "cell growth or viability, MTT", "conditions": "125 µg/mL", "quantity": "viability", "value": "38.3%"}
{"Compound": "CC(=NNC(=O)c1ccncc1)c1ccc(Nc2nnc(-c3ccc(Cl)cc3)c3ccccc23)cc1", "target or system": "MCF7", "test": "cell growth or viability, MTT", "conditions": "0.312 µM, 24 h", "quantity": "viability", "value": "8.41%"}
{"Compound": "C[C@@H]1CC[C@@H]([C@@](C)(O)Cn2cnc3ccccc32)[C@H](OCc2ccccc2)C1", "target or system": "A2780", "test": "cell growth or viability, MTT", "conditions": "30 µM, 72 h", "quantity": "inhibition", "value": "99.2%"}
{"Compound": "CC(=NNC(=O)c1cccnc1)c1ccc(Nc2nnc(-c3ccc(Cl)cc3)c3ccccc23)cc1", "target or system": "MCF7", "test": "cell growth or viability, MTT", "conditions": "2.5 µM", "quantity": "cell death", "value": "85.2%"}
{"Compound": "C[C@@H]1CC[C@@H]([C@](O)(CNCc2ccc(F)cc2)COCc2ccc(F)cc2)[C@H](OCc2ccc(F)cc2)C1", "target or system": "HeLa", "test": "cell growth or viability, MTT", "conditions": "30 µM, 72 h", "quantity": "inhibition", "value": "96.8%"}
{"Compound": "S=C(Nc1ccccc1)Nc1ccc(Oc2nnc(-c3ccc(Cl)cc3)c3ccccc23)cc1", "target or system": "MCF7", "test": "cell growth or viability, MTT", "conditions": "2.5 µM", "quantity": "cell death", "value": "96.4%"}
{"Compound": "CCc1c(C)c2ccc(OCc3nnc(S)n3N)c(C)c2oc1=O", "target or system": "PC-3", "test": "cell growth or viability, MTT", "conditions": "250 µg/mL", "quantity": "viability", "value": "3.46%"}
{"note": "For quick reference, copied from above:"}
{"Compound": "CC(=NNC(N)=S)c1ccc(Nc2nnc(-c3ccc(Cl)cc3)c3ccccc23)cc1", "target or system": "MCF7", "test": "cell growth or viability, MTT", "conditions": "0.312 µM, 24 h", "quantity": "viability", "value": "6.82%"}
{"Compound": "COC1CCN(C(=O)/C=C/c2nn(CC3CCCC3)c3ncnc(N)c23)CC1", "target or system": "FLO-1", "test": "cell growth or viability, resazurin", "conditions": "5 days", "quantity": "EC50", "value": "> 30 µM"}
{"Compound": "CC(=NNC(=S)Nc1ccccc1)c1ccc(Nc2nnc(-c3ccc(Cl)cc3)c3ccccc23)cc1", "target or system": "MCF7", "test": "cell growth or viability, MTT", "conditions": "2.5 µM", "quantity": "cell death", "value": "87.8%"}
